Published values pooled from the literature.
Parts stem from different laboratories: compare values within a part only.

Sample 1
Target: RNA binding protein fox-1 homolog 2, RRM domain, GST-SBP tag (RBFOX2, Homo sapiens, UniProt O43251-10, residues 100-194)
Method: RNA Bind-n-Seq
Molecule type: RNA
Sample: in vitro
Tested at: 365 nM
Setting: natural RNA segment, single round, ends assumed
Relative to: no-protein control
Reading: higher = stronger binding
Target sequence (chain): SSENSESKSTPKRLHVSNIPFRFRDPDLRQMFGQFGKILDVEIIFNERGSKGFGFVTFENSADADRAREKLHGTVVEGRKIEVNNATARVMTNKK
Sequence	RBNS enrichment (R)
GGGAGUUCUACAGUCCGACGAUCUCAUAUUCUUCGCUUGGCAGUGUGUAUUCUUUUCACAAGUUUGCCUAGUGUCUUGGUUUACACAAUAUGACAACUGUAACUGUACUUUAGCUAUUGUUUGCCUGCACAUAUGGAAUUCUCGGGUGCCAA	2.57
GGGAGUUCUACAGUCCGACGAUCAUUUCAUGGAGUCGUAUCAACGCUAUGAACGCAAGGCUGUGAUAUGGAACCAGAAGGCUGUCUGAACUUUUGAAACCUUGUGUGGGAUUGAUGGUGGUGCCGAGGCAUGAUGGAAUUCUCGGGUGCCAA	21.6
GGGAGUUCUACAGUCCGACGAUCAGCUGGGCCCAGCCGGGCCGUGCCUGCUGGCACAGACGCCUUAACGCUGUGUGUAUGACUGUGUGACUGUGUGGGAGCCUGGACUGACAGAUAGGCCAAGGGCUACUCUCUGGAAUUCUCGGGUGCCAA	0.4
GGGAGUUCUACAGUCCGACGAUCCCUUCUUAACAAGUAUAGUCAUGGCACCACGUAACAUUUUGGUCAAUGACAUUGUAUAAAGGGUGGUCUCAUAAGAUUAUACCAUAUUUUUACUGUACCUUUUCUAUGUCUGGAAUUCUCGGGUGCCAA	0.466
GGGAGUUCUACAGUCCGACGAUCGCCCUGGGGCUCAUCAUGAUGCUUUCCUGGAUCUGUUGCUUCAUCUGCAAGCUGAGGGUGUUUGUUCUAGAUGAGUGUCUCAGGCCACCGGCAACUGCAUGUACCUCCUCUGGAAUUCUCGGGUGCCAA	4.05
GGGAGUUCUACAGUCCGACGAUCACAGCGGAAAGUGGACCUGCCAGGCCGGGAGUGUGUCCCUCACCAACUAUGCACACAGCACUCGCUCUUAGCUCCUCUGUCCGGGCUACUAGGAGUGAGACCAGCUUCUGUGGAAUUCUCGGGUGCCAA	0.292
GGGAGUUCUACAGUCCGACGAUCCUGCACGGCUAGGGAGUGUCAUCUCAGCUGAAGGCCUCACCCAAGACAGGCAGACAGACAUGAACAUUACUGAUGUGCUUUUCCGACCUGCUAUGUGCAGGCAGGCAGGGUGGAAUUCUCGGGUGCCAA	0.582
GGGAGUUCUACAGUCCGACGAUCCUCCACAUACCUACACCUUGGGUGCAUCACUCCAUUCAUGGCCUCCUGUUACCAACUGCGCAGACAUCACACAAUCCGUGCCAUGUGAUUGAGAAAUGGAAAUGCCACCUUGGAAUUCUCGGGUGCCAA	0.938
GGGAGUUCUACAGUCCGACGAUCUAUAUGUAUAUGCUGUGUCAUACUCAUAAUCUGGAAAUGAAUAAAGUGAUAUAUUCCUGGUUUGUAAUUUGUUCCUAGUUUGUCUUUUUUCAUGGUGAUGUUUGUUUCCUUGGAAUUCUCGGGUGCCAA	1.57
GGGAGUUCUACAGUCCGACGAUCGAAUUUUUUCAAAUGUUGGAAGGUGUGUGGUUCUUCCUGCCCUCCCUCCCCUUUUGGAAAUAUGAAAGCAAAUGUUUAGAAGAAUUCCUUUUGAAAAGCUGUGUCGUGUUUGGAAUUCUCGGGUGCCAA	1.15
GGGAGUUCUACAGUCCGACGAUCUGUCUGAGCUUUCCUGACCCCUGUAUUGUAUCCUUGCUCCCAGGGCUCCCUUCAUGGCUUGUGAACUGUUAACUUGGUAUCUCAGGUUAAACUGUCAGCUGGUCUAGCCUUGGAAUUCUCGGGUGCCAA	0.49
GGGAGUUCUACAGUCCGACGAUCUCCUCCCACCUGCCUUCCUCCAUACAAACUAACAGUCUCAUGGGGGGAAGAAAGCAAGGGACAAAGAACUGCAAGGGGCCAAAGCCAAAGAUCUAUCCGAGUGCUUCCUUUGGAAUUCUCGGGUGCCAA	0.333

Sample 2
Target: Sal-like protein 4, full length isoform A (SALL4, Homo sapiens, UniProt Q9UJQ4, residues 1-1053)
Chain of UniProt Q9UJQ4 (whole entry, looked up): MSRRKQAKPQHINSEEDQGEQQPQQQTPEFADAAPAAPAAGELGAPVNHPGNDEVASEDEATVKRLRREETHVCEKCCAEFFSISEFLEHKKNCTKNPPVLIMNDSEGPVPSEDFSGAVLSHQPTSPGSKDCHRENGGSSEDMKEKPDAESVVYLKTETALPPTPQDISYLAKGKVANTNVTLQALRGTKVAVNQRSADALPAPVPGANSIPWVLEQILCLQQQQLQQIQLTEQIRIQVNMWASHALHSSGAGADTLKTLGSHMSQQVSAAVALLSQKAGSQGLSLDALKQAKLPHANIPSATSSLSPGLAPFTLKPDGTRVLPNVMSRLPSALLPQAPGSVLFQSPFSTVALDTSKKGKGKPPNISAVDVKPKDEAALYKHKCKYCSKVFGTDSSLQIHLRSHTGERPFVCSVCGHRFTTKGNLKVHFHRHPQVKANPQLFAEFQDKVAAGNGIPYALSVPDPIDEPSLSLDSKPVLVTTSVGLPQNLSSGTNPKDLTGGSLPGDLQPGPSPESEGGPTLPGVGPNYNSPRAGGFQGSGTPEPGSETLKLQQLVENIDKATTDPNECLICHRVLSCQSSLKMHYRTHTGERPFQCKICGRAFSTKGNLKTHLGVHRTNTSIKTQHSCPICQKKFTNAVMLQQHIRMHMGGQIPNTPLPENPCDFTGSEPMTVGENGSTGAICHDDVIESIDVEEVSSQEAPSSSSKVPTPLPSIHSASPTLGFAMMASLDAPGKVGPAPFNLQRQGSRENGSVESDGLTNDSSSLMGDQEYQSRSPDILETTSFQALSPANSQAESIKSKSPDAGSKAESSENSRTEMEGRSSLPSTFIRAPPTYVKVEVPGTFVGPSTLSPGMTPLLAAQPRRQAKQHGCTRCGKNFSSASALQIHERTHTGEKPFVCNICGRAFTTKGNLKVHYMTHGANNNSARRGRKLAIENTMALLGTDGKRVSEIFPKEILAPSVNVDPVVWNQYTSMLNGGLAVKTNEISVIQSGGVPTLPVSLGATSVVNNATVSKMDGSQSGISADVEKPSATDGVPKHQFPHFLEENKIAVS
Method: universal PBM
Molecule type: double-stranded DNA, one strand shown
Sample: in vitro
Tested at: 600 nM
Setting: 8-mer, flanks averaged, mean of replicates
Reading: higher = stronger binding
Sequence	E-score
ATTATGGC	0.231
ATGATCTA	0.194
ACTACGGA	-0.0782
AATCACAA	0.147
GGTATAAC	0.175
TGATTCCA	0.0571
CTGCAGAC	-0.142
CCCGCACA	-0.253
GGCCGTAA	-0.152
CTACTCGA	-0.00741
AGATGTTC	0.089
AAAAAGTG	0.162
CAGGAGAC	-0.183
CGGTAACA	0.12
AATTCGTC	0.0491
CGCCTCGC	-0.307
CGTCCGTC	-0.382
ATGCCCCA	-0.227
CTTCGATC	-0.101

Sample 3
Target: Interferon regulatory factor 5, full length, phosphomimetic (IRF5, Homo sapiens, UniProt Q13568-2, residues 1-514, K96S/S451D/S453D/S456D/S462D)
Method: protein-binding microarray
Molecule type: double-stranded DNA, one strand shown
Sample: in vitro
Tested at: 250 nM
Setting: 60-bp whole probe
With: salmon DNA 0.4 mg/ml
Relative to: random background probes
Reading: higher = stronger binding
All sequences stand within: GCCTAGCAC … GTCTTGATTCGCTTGACGCTGCTG
Sequence	log fluorescence [z-score]
TTAGATCTCAGTATCGATAAGTGCTAG	6
TCAGTTTCTCCTTTCGGACTGTGCTAG	5.76
ATAGAACTGGGGTTTCGATTAGTGCTA	5.74
TTGGGTTTCCTTATCCTTTAGTGCTAG	0.686
GACGGTCTCCTACTACTGACGTGCTAG	-0.204
GACGGTATCGACTTTCCGGACGTGCTA	2.73
AGGAGAGATTAAGTAACTTAGTGCTAG	-0.0889
TTAGGACTGGGGTAACGGTTAGTGCTA	-0.663
GACGTTTTCGGTATCGGGACGTGCTAG	9.14
ATCTCACTCTAATCTCACTCTGTGCTA	0.86
TTAGAACTGAGTCTTGATTAGTGCTAG	0.0443
TTAGGACTGCTACTGATTTAGTGCTAG	-0.203
TTAAATTCCAGTTTCGATTAGTGCTAG	10.2
GACGGACTGTGTCTCGGGACGTGCTAG	-0.744
TTGACTCTTTCTGTCAGTTTGTGCTAG	3.57
TTAGGACTGGGCATCGGTTAGTGCTAG	-0.0863
TTAGGACTGCTTCTCCTTTCGTGCTAG	0.516
GACGGTTTCGACTTTCGCGACGTGCTA	6.38
TCAGCCCTCACCATCATACTGTGCTAG	-0.156
GACGGACTGGGGACTTGGGACGTGCTA	-0.58
GAGGATCTCAGTCTCGAGACGTGCTAG	-0.25
TTAGGTATCAGTTTCGATTAGTGCTAG	10
TTAGTTTTCCTTTCCCTTTAGTGCTAG	3.15

Sample 4
Target: Histone acetyltransferase KAT6A, both winged helices, GST fusion (KAT6A, Homo sapiens, UniProt Q92794, residues 1-181)
Method: protein binding microarray
Molecule type: double-stranded DNA, one strand shown
Sample: in vitro
Tested at: not given
Setting: 8-mer, flanks averaged, mean of 2 arrays, mostly near background
Relative to: not given
Reading: higher = stronger binding
Construct (chain): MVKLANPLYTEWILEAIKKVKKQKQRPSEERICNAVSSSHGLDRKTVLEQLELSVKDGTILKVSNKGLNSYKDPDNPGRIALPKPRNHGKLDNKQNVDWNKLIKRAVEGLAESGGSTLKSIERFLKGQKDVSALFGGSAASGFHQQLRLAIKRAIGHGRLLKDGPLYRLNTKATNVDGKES
Sequence	E-score
CTTGCGCA	0.287
CTTATGTA	-0.168
GGATGAGA	-0.125
CCCATAGG	-0.0918
GACCCTAA	-0.179
AGGCTTGG	-0.0978
CTCAAATC	-0.122
CCCACTTC	-0.139
CGCGGCAC	0.31
CTACATCC	0.027
AAGAAAAT	-0.0721
GGGTGAAA	-0.0913
CGTGTTTA	0.0416
ATGGGTCA	-0.203
GCACAACA	-0.022
AAGTCAGC	-0.107
ATTTTGAC	-0.0822
ATGCTAGG	-0.0921
ATCTACGC	0.199
TAAACAAA	-0.0515
GCCGTTTA	0.239
ATCAGCAC	-0.209

Sample 5
Target: RING finger protein unkempt homolog, zinc fingers 1-6, GST-SBP tag (UNK, Homo sapiens, UniProt Q9C0B0, residues 30-357)
Chain of UniProt Q9C0B0 (30-357, looked up): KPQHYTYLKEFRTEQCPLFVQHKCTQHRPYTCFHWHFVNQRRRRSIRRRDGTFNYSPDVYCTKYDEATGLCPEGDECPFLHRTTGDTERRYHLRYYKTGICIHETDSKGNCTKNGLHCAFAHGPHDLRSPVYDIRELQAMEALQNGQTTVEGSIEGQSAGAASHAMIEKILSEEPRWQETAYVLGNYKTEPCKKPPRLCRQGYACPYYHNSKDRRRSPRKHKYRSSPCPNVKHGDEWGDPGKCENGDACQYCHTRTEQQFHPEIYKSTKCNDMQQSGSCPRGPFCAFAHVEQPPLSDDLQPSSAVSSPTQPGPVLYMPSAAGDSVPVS
Method: RNA Bind-n-Seq
Molecule type: RNA
Sample: in vitro
Tested at: not given
Setting: RNA with constant flanks, human-mouse chimeric sites, ends assumed
Relative to: input RNA pool
Reading: higher = stronger binding
Sequence	bound/input enrichment
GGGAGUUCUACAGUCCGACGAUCGCGGCAGAAUCAUGGAGGACAUAAUGCACUUGCCCAGAGCGCGCGUCAACGCCAGCAUGUUACCACAGUAUAUCGACAAGCCUGUCUGCUUCGUGGGGAAGCUGGAAAAGAUUCAUCCCACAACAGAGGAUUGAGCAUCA	0.132 ratio
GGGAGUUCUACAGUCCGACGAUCGGUGGGGUGGUCAUUGCGCCAAUUGAGGCUGAUUUUCAUGAGUCGCCUUCAAAACUCUCGUGUAGGGUUGACACUGUGGGGGGGUGGGGGAUCCAGCUUAUUCUUUUAUUUUCAAGUCCACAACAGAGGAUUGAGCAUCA	0.694 ratio
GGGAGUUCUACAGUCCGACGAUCCUGGCACUCUAUCAGAUAUAUUAAUUUUUUAAUGUAGAUAAAAUUUCAAAAAUGAAUGGCUACUUUACACGUUUAACUAGGGUUUUACUAUAUAUGUGUGUGUAUAUAUAUAUAUAUAUACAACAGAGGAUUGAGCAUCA	20.9 ratio
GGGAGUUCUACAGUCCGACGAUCUACUCAACUUUCUUGCCACAUUUUGAAUUCCAAGACAUUAUCCCUCCAGAUGACUUCCUAACGAGUGAUGAAGAGCAAGAUUUGGUUUUAUUUGGAACUAUGAGAGGACAAGUUGUUGGACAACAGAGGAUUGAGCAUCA	0.168 ratio
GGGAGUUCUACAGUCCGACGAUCGCGGCAGAAUCAUGGAGGACAUAAUGCAGCUCCCCAAAGCGCGCGUCAACGCCAGCAUGUUACCACAAUUCAUCGACAAGCCUGUCUGCUUCGUGGGGAAGCUGGAAAAGAUUCAUCCCACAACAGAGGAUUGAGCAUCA	0.125 ratio
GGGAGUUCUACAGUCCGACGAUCAAAGUGGACUAUGGCGAGUACAUGGAUAAAAACAAUGUGAGGCGACAAGCAACAACAAUCAUAGCUGAUAACAUUAUAUUUCUGAGUGACCAGACGAAAGAAAAGGCAUAGAACGGAUGACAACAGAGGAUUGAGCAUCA	1.37 ratio
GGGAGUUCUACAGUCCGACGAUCCACAGAGGCACCACCCCCCCCUCCUCCUUUCCACACCUGCAAACUCUUUUGCCUGGGCUGAAUAUUUAGUGUAAUUACAUCUCAGCUUUGAGGGCUCCUGUGGCAAAUUCCCGGAUUAAACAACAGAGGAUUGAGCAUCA	1.12 ratio
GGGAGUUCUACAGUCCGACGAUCUCUGGCCACACUCGUGUGUAUGGUGUUUGCUUUGUGGACACUUCACUGGGAAAGUUUUUCAUCGGCCAGUUUUCGGAUGACCGCCACUGUUCCAGAUUUAGGACGCUAGUGGCUCACUAUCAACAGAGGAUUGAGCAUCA	0.184 ratio
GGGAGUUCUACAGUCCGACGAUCGUCAACAGCUGCCUCAACCCCAUCCUCUACGCCUUCCUGGAUGAGAACUUCAAGGCCUGCUUUAGAAAGUUCUGCUGUGCAUCUGCCCUGCACCGGGACGUGCAGGUGUCUGACCGCGUGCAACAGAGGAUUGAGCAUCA	0.359 ratio
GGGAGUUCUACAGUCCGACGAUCCUGUGACCACAAGAUCCUACCUGAGUGGCAGCUGAAGUUGACUCCCUCUCCUUGCCUGCCUAGUUUCCCACUGCCCCCCCAUCCCCCAGUGUCGGCUGAGAUGUUGCCAGCAGACAGUUCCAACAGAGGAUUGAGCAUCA	0.389 ratio
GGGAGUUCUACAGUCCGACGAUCUUGAAAACUGAUUCAAGUAAGUUUGAGUAUCACAAUGUUAGCUUUCUAAUUCCAUAAAGAUAGUUUUUUUUUACAGUUUAUAAUCUGACAUCACCCCAGCGCCAUUUAGAUCAGCUUACUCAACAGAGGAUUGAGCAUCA	16.4 ratio

Some of these lines once more (sample 4):
Sequence	E-score
CTCAAATC	-0.122
CCCACTTC	-0.139
CGCGGCAC	0.31
CTACATCC	0.027
AAGAAAAT	-0.0721
GGGTGAAA	-0.0913
CGTGTTTA	0.0416
ATGGGTCA	-0.203
GCACAACA	-0.022
AAGTCAGC	-0.107
ATTTTGAC	-0.0822
ATGCTAGG	-0.0921
ATCTACGC	0.199
TAAACAAA	-0.0515
